Measured values of several laboratories.
Lines come from different studies, so protocols differ. ± marks the error that the study gave.
PDE1C: Dual specificity calcium/calmodulin-dependent 3',5'-cyclic nucleotide phosphodiesterase 1C (PDE1C, Homo sapiens, UniProt Q14123)
UniProt Q14123, sequence (whole entry, looked up): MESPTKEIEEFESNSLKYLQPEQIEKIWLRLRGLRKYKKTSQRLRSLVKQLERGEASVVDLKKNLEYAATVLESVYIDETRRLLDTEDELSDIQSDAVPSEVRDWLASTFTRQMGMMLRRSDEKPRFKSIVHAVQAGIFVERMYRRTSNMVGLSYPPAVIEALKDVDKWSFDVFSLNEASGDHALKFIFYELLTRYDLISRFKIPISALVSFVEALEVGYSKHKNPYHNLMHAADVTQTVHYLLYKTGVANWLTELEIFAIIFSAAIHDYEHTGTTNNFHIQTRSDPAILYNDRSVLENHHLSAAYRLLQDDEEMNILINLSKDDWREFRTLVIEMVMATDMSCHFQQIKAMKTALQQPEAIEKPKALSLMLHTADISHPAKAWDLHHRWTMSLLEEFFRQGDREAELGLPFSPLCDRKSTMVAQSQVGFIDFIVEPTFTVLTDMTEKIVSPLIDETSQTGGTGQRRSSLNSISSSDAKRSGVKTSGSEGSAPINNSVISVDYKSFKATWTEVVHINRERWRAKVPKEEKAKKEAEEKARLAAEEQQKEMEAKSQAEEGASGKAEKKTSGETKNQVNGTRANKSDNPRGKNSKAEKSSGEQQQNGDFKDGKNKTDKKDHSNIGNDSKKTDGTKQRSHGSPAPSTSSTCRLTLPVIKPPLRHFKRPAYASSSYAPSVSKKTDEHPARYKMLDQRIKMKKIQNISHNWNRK
Urease: Urease (Canavalia ensiformis, UniProt P07374)
UniProt P07374, sequence (whole entry, looked up): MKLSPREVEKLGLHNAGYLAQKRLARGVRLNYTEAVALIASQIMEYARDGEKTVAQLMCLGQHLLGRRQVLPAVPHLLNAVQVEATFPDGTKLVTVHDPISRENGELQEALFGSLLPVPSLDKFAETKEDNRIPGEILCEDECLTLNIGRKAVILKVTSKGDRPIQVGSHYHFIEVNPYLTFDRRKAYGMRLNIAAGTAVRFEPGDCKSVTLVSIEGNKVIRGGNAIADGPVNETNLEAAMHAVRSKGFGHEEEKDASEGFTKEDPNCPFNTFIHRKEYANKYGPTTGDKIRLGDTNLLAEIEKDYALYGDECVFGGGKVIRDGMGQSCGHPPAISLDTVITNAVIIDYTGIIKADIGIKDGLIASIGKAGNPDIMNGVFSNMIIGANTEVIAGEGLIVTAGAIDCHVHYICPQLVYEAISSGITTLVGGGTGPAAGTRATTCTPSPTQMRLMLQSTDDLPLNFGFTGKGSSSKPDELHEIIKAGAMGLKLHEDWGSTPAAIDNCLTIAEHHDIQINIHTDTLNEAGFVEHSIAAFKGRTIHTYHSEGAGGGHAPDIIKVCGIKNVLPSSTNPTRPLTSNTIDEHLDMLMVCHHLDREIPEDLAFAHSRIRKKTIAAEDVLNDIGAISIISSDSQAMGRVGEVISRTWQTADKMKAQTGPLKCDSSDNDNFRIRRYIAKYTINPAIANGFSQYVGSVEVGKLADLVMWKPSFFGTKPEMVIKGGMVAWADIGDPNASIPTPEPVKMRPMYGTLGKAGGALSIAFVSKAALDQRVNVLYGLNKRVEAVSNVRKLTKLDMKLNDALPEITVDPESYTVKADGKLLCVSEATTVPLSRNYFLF
SNCA pre-formed fibrils: Alpha-synuclein, pre-formed fibrils (SNCA, Homo sapiens, UniProt P37840)
SYK tandem SH2 domains: Tyrosine-protein kinase SYK, tandem SH2 domains (SYK, Homo sapiens, UniProt P43405)
crk3 with CYC6: crk3, with CYC6 (Leishmania mexicana, UniProt O15851)
UniProt P17858, sequence (whole entry, looked up): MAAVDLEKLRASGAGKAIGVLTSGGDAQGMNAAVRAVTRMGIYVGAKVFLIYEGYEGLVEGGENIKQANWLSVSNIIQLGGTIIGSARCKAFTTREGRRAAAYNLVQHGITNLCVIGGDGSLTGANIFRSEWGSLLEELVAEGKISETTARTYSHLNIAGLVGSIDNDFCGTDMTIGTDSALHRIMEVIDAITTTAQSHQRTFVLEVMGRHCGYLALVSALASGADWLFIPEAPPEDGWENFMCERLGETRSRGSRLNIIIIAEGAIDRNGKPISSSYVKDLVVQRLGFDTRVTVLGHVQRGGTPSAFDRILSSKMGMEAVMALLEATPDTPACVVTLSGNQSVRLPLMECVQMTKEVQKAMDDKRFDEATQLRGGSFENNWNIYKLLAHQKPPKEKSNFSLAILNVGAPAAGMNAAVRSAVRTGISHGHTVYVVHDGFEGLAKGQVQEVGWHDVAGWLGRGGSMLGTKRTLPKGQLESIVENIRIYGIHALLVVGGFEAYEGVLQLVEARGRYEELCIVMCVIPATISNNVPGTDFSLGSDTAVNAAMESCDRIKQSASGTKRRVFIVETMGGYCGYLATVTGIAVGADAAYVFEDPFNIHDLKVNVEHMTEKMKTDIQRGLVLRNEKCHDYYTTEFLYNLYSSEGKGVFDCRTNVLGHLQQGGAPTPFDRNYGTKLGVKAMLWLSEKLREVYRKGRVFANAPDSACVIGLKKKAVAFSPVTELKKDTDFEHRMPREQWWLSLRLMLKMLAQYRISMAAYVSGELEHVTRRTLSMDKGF
UniProt P21453, sequence (whole entry, looked up): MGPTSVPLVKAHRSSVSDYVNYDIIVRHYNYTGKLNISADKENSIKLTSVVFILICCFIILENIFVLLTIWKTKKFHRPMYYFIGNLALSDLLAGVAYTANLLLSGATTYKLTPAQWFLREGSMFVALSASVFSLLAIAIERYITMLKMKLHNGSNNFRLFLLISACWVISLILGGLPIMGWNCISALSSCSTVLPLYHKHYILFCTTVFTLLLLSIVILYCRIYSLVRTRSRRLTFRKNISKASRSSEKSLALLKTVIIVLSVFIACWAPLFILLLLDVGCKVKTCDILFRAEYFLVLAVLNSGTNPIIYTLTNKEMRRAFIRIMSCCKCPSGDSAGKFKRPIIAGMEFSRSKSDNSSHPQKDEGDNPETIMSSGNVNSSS
UniProt Q13547, sequence (whole entry, looked up): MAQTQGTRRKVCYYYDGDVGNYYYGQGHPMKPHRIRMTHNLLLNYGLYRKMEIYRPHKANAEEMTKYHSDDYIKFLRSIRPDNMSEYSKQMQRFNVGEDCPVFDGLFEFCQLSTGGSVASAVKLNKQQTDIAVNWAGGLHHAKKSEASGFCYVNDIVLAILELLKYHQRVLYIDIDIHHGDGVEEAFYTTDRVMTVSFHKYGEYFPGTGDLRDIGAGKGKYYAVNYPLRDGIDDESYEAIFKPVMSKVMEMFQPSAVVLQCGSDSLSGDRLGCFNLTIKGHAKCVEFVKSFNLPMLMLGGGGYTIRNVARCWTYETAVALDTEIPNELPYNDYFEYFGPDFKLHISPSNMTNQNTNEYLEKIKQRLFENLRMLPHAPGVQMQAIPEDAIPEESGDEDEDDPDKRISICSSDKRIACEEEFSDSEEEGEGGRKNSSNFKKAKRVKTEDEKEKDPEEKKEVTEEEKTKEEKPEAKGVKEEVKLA
UniProt P35346, sequence (whole entry, unmodified, looked up): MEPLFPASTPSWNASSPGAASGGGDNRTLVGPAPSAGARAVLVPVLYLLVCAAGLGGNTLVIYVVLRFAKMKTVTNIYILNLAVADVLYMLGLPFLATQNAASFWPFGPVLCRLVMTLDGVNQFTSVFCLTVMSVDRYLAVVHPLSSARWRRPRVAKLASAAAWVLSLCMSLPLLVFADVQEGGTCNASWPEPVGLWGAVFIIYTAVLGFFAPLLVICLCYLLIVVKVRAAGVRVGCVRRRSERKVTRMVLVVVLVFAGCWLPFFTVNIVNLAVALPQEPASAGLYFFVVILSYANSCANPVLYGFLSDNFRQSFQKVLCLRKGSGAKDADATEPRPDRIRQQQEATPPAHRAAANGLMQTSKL
UniProt Q15910, sequence (whole entry, looked up): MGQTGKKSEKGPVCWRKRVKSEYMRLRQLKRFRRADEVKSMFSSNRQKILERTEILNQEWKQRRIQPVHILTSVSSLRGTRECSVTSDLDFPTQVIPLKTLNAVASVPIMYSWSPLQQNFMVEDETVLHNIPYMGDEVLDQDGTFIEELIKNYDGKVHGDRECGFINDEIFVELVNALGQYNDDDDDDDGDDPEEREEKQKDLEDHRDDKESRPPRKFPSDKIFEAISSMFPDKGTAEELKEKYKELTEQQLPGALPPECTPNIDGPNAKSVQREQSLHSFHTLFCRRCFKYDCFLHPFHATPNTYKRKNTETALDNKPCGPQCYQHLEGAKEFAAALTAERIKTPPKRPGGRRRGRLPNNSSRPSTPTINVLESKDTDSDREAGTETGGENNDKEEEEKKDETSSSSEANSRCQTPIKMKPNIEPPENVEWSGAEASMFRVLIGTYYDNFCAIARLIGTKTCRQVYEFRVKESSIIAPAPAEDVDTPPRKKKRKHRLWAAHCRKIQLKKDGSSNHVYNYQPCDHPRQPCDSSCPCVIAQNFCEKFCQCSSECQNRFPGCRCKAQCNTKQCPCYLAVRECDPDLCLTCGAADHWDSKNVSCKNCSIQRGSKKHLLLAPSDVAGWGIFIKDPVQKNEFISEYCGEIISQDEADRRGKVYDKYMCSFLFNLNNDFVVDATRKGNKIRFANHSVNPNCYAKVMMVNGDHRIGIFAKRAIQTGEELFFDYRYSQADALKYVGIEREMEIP
UniProt P51659, sequence (whole entry, looked up): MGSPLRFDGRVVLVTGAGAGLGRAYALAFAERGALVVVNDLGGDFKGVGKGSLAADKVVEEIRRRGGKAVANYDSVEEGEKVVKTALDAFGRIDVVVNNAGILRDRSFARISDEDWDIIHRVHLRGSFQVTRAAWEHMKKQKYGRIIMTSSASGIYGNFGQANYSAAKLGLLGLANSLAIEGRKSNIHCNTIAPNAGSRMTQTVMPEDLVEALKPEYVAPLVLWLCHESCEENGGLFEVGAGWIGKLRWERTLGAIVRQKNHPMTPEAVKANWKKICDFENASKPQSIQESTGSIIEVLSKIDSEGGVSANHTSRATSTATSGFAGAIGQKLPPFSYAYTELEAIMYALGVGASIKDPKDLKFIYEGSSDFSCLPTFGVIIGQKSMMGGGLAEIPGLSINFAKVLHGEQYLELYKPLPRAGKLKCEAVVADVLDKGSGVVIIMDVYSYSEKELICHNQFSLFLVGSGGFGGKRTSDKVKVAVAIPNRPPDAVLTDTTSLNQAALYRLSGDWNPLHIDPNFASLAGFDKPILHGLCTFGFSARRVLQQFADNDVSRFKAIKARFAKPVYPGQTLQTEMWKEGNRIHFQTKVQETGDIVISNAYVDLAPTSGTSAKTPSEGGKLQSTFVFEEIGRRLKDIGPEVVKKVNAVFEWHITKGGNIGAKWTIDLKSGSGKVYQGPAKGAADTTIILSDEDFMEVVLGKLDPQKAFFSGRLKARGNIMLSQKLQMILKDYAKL

SMILES	target	assay	test system	conditions	IC50 [µM]
Cc1cc(C)c(S(=O)(=O)N(CC(=O)O)c2ccc(Nc3ccnc(N4CCCC4)n3)cc2)c(C)c1	Serine-protein kinase ATM (ATM, Homo sapiens, UniProt Q13315)	enzyme activity, inhibitor	–	–	> 100
CC[C@H](C)[C@H](N)C(=O)NS(=O)(=O)CC(=O)N[C@@]1(C(=O)O)[C@@H](OC(=O)[C@@H](N)[C@@H](C)c2ccccc2)C[C@H]2C(C(N)=O)=CN(C)C[C@H]21	Carbonic anhydrase 1 (CA1, Homo sapiens, UniProt P00915)	enzyme activity, inhibitor, absorbance	–	–	2.4
Fc1ccc(Nc2nc(NC3CCCCC3)c3ccccc3n2)cc1F	Beta-2 adrenergic receptor (ADRB2, Homo sapiens, UniProt P07550, N148A)	β-arrestin2 recruitment, antagonist, BRET	HEK293	mutant N148A, added: isoprenaline 1 µM	1.58
C[C@H](C(=O)O)n1nc(Cn2cc3cc(OCCF)c(Cl)cc3n2)c2ccccc2c1=O	Sphingosine 1-phosphate receptor 1 (S1PR1, Homo sapiens, UniProt P21453)	ligand displacement, radioligand	–	cell membranes	> 1
CC(C)(C)n1ncc2c(=O)n(Cc3cccc(F)c3)c(NCc3ccc(Cl)nc3)nc21	PDE1C	enzyme activity, inhibitor, radiometric	–	–	0.0019
Cc1[nH]c(C)c(S(=O)(=O)Nc2cccc(Cl)c2)c1C(=O)N1CCCC1	D(2) dopamine receptor (DRD2, Homo sapiens, UniProt P14416)	–	–	–	> 100
CC(C)C[C@H](NC(=O)[C@@H](NC(=O)[C@H](Cc1ccccc1)NC(=O)c1ccc(C(C)(C)C)cc1)C1CCCC1)C(=O)N[C@@H](CCCCN(C)C1CC2CCC1C2)C(=O)N[C@@H](CO)C(N)=O (stereo partly drawn)	Chromobox protein homolog 7 (Homo sapiens, UniProt O95931)	ligand displacement, TR-FRET	–	–	> 30
CN(CB(O)O)C(=S)[C@@H](N)CCC(=O)O	Dipeptidyl peptidase 8 (Homo sapiens, UniProt Q6V1X1)	enzyme activity, inhibitor, fluorescence	–	–	12
C[C@@H](Nc1nc2c(cnn2C(C)(C)C)c(=O)n1Cc1cccc(F)c1)c1ccc(Cl)cc1	cGMP-dependent 3',5'-cyclic phosphodiesterase (PDE2A, Homo sapiens, UniProt O00408)	enzyme activity, inhibitor	–	–	3.15
CC(C)[C@H](NC(=O)[C@H](Cc1ccccc1)NC(=O)[C@H](CO)NC(=O)[C@@H](N)Cc1ccc(O)cc1)C(=O)N[C@@H](CO)C(=O)NCC(=O)NCC(=O)O	SUMO-activating enzyme (Homo sapiens, UniProt Q9UBE0+Q9UBT2)	SUMO thioester formation, Western blot	–	10 min, added: 1 µM SUMO	125
Cc1nn(-c2cccc(N)c2)c(=O)c2cnc(Nc3ccc(N4CCNCC4)cc3)nc12	Serine/threonine-protein kinase DCLK2 (DCLK2, Homo sapiens, UniProt Q8N568)	enzyme activity, inhibitor	–	–	> 10
Brc1ccccc1-c1cc(CN2c3ccccc3C=Cc3ccccc32)on1	Urease	enzyme activity, inhibitor	–	–	> 27
CSc1cc(C)[nH]c(=O)c1CNC(=O)c1cc(Cl)c2c(c1C)OC(C)(C1CCC(N(C)C)CC1)O2 (stereo not drawn)	Histone-lysine N-methyltransferase EZH2, PRC2 pentameric complex (EZH2, Homo sapiens, UniProt Q15910)	enzyme activity, inhibitor	–	added: H3K27me3 activating peptide	3.3e-05
CN1CCN(C(=O)c2ccc(-c3cc4nccc(-c5ccc6cnccc6c5)c4o3)cc2)CC1	Tyrosine-protein kinase SYK (SYK, Homo sapiens, UniProt P43405)	enzyme activity, inhibitor	–	–	0.27
Cc1cc(C)nc(NC(=S)N2CCN(Cc3ccc(C(F)(F)F)cc3)CC2)c1	Peroxisomal multifunctional enzyme type 2 (HSD17B4, Homo sapiens, UniProt P51659)	enzyme activity, inhibitor	–	–	> 57
CN1CCN(c2cccc3cc(NC(=O)Nc4cccc(C(=O)NO)c4)ccc23)CC1	SNCA pre-formed fibrils	binding to RAGE, inhibitor, ELISA	–	added: FLAG-α-syn PFFs 100 nM	1.04
CCCCCCCCC=CCCCCCCCC(=O)OCC(C)(C)CC1=C(O)C(=O)c2ccccc2C1=O	Alpha-glucosidase MAL12 (MAL12, Saccharomyces cerevisiae S288c, UniProt P53341)	enzyme activity, inhibitor	–	–	3.24
CC(C)(C)n1ncc2c(=O)n(Cc3cccc(F)c3)c(NCc3cc(Cl)ccn3)nc21	PDE1C	enzyme activity, inhibitor, radiometric	–	–	0.0009
C1=Cc2ccccc2N(Cc2cc(-c3ccc(OCc4ccccc4)cc3)no2)c2ccccc21	Urease	enzyme activity, inhibitor	–	–	> 27
CCN(CC)Cc1ccc2cc(COC(=O)Nc3cccc(C(=O)NO)c3)ccc2c1	SNCA pre-formed fibrils	binding to mouse LAG3 D1, inhibitor, ELISA	–	added: FLAG-α-syn PFFs 100 nM	8.44

SMILES	target	assay	test system	conditions	IC50 [µM]
COc1cc(O)cc2c1C1(CCC(=O)CC1)CC2	rat intestinal maltase	inhibitor	rat intestinal acetone powder	10 min, 37 °C, added: maltose 10 mM	1560 ± 180
COc1cc(OC)c2c(=O)cc(-c3cc(C)c(OCCCN4CCN(C)CC4)c(C)c3)oc2c1	Bromodomain testis-specific protein, BD1 (BRDT, Homo sapiens, UniProt Q58F21)	cell-free assay, TR-FRET	–	–	2.32
COc1ccc(OC)c(CN2CCN(Cc3cc(OC)c(O)c(OC)c3)CC2)c1	Alpha-synuclein, fibrils (SNCA, Homo sapiens, UniProt P37840)	fibril growth, inhibitor, FlAsH fluorescence	–	added: LBD brain-amplified fibril seeds	16 ± 1
CC1(F)CN(C(=O)Cn2c(=O)c(C(=O)NCc3ccc(Cl)cc3)cc3nc(N4CCN(CCN)C4=O)cnc32)C1	DNA polymerase catalytic subunit (Human cytomegalovirus, UniProt P08546)	enzyme activity	–	single determination	0.129
CC(C)n1c(N)nc2c1c(=O)[nH]c(=O)n2C	SYK tandem SH2 domains	binding, inhibitor, TR-FRET	–	added: FITC-FCER1G phospho-ITAM peptide	> 100
CC(C)(C)c1ccc(NC(=O)c2cnn(-c3ccc([N+](=O)[O-])cc3)c2C(F)(F)F)cc1	Prostaglandin G/H synthase 1 (PTGS1, Ovis aries, UniProt P05979)	enzyme activity, inhibitor	–	–	6.62
O=C(Nc1ccc(C(=O)NO)cc1)OCc1ccc2ccccc2c1	SNCA pre-formed fibrils	binding to mouse LAG3 D1, inhibitor, ELISA	–	added: FLAG-α-syn PFFs 100 nM	4.94
C[S@@](=N)(=O)c1ccc(C(=O)Nc2cc(-c3ccc(F)cc3)ccc2N)cc1	Histone deacetylase (HDAC1 and HDAC2), in NuRD complex (HDAC1/HDAC2, Homo sapiens, UniProt Q13547+Q92769)	enzyme activity, inhibitor	–	–	> 100
Brc1cnn2ccc(Nc3ccc(N4CCOCC4)cc3)nc12	crk3 with CYC6	enzyme activity, inhibitor, radiometric	–	added: Leishmania major CYC6 cyclin, 1 µM ATP	10
N#Cc1cccc(-c2cc(CN3c4ccccc4C=Cc4ccccc43)on2)c1	Urease	enzyme activity, inhibitor	–	–	7.91
O=C(NS(=O)(=O)c1cccs1)c1cc2ccccc2n1Cc1ccc(Br)c2ccccc12	Solute carrier family 22 member 12 (SLC22A12, Homo sapiens, UniProt Q96S37)	transporter uptake, inhibitor, radiometric	–	–	3.81
COc1cc(OC)c(/N=N/c2cc(C(=O)NO)ccc2OC)c(OC)c1	Urease	enzyme activity, inhibitor, absorbance	–	pH 7.3	> 512
Cc1cccc(-c2cnn3ccc(Nc4ccc(N5CCOCC5)cc4)nc23)c1	crk3 with CYC6	enzyme activity, inhibitor, radiometric	–	added: Leishmania major CYC6 cyclin, 1 µM ATP	2.6
Cc1ccc2c(c1)nc(NC(=O)c1cccc(C(F)(F)F)c1)n2[C@H]1CC[C@H](N)CC1	Dual specificity protein kinase CLK1 (CLK1, Homo sapiens, UniProt P49759)	ADP-Glo	–	10 min pre-incubation, added: ATP 10 µM	> 20
CC1CC=CC(=O)C(O)C(O)CC2OC2c2cc(O)cc(O)c2C(=O)O1 (stereo not drawn)	Mitogen-activated protein kinase kinase kinase 7 (MAP3K7, Homo sapiens, UniProt O43318)	enzyme activity, inhibitor, ATP luminescence	–	–	0.08
Cn1c(=O)c2[nH]cnc2n(C)c1=O	SYK tandem SH2 domains	binding, inhibitor, TR-FRET	–	added: FITC-FCER1G phospho-ITAM peptide	> 100
O=S(=O)(c1ccc2c(c1)OCO2)n1cc(CCCCN2CCC(=C(c3ccc(F)c(F)c3)c3ccc(F)c(F)c3)CC2)nn1	ATP-dependent 6-phosphofructokinase, liver type (PFKL, Homo sapiens, UniProt P17858)	probe labelling, competitive gel-based ABPP	HEK293T	–	0.141
COc1cc(OC)c(/N=N/c2ccc(C(=O)NO)c(C(F)(F)F)c2)c(OC)c1	Urease	enzyme activity, inhibitor, absorbance	–	pH 7.3	> 512
CCOc1cc(CN2CC3(CC(N4CCC(C(=O)O)CC4)=NO3)C2)cc(OCC)c1-c1ccc(F)cc1	Somatostatin receptor type 5 (SSTR5, Homo sapiens, UniProt P35346, F201A)	cAMP level, antagonist, GloSensor	AD293	F201A mutant, bandwidth 5.38, added: CST17 EC80 and forskolin	1.05

Repeated from above:
SMILES	target	assay	test system	conditions	IC50 [µM]
C[C@H](C(=O)O)n1nc(Cn2cc3cc(OCCF)c(Cl)cc3n2)c2ccccc2c1=O	Sphingosine 1-phosphate receptor 1 (S1PR1, Homo sapiens, UniProt P21453)	ligand displacement, radioligand	–	cell membranes	> 1
CC(C)(C)n1ncc2c(=O)n(Cc3cccc(F)c3)c(NCc3ccc(Cl)nc3)nc21	PDE1C	enzyme activity, inhibitor, radiometric	–	–	0.0019
Cc1[nH]c(C)c(S(=O)(=O)Nc2cccc(Cl)c2)c1C(=O)N1CCCC1	D(2) dopamine receptor (DRD2, Homo sapiens, UniProt P14416)	–	–	–	> 100
CC(C)C[C@H](NC(=O)[C@@H](NC(=O)[C@H](Cc1ccccc1)NC(=O)c1ccc(C(C)(C)C)cc1)C1CCCC1)C(=O)N[C@@H](CCCCN(C)C1CC2CCC1C2)C(=O)N[C@@H](CO)C(N)=O (stereo partly drawn)	Chromobox protein homolog 7 (Homo sapiens, UniProt O95931)	ligand displacement, TR-FRET	–	–	> 30
CN(CB(O)O)C(=S)[C@@H](N)CCC(=O)O	Dipeptidyl peptidase 8 (Homo sapiens, UniProt Q6V1X1)	enzyme activity, inhibitor, fluorescence	–	–	12
C[C@@H](Nc1nc2c(cnn2C(C)(C)C)c(=O)n1Cc1cccc(F)c1)c1ccc(Cl)cc1	cGMP-dependent 3',5'-cyclic phosphodiesterase (PDE2A, Homo sapiens, UniProt O00408)	enzyme activity, inhibitor	–	–	3.15
